# Published values collected from several papers.
# Numbered parts are unrelated; each lists some results of a single study. Positions count from the first letter of the parent shown.

# Study 1
# Target: Prothrombin, mature alpha-thrombin (F2, Homo sapiens, UniProt P00734)
# Technique: aptamer microarray, sandwich
# Form: DNA with 2'F-ANA
# Medium: in vitro
# Concentration: 200 nM
# Setting: whole 15-mer aptamer, many near background
# Added: Cy3 exosite-II aptamer, 400 nM
# Reading: higher = stronger binding
# Sequence: GGTTGGTGTGGTTGG
Modification,mean fluorescence intensity [a.u.]
2'F-ANA at 3 4 6 8 10,268
2'F-ANA at 3 4 5 6 7 8 10 11 13 14,46.8
2'F-ANA at 3 6 9,1070
2'F-ANA at 1 5 6 7 9 10 11 12 13 14,48.3
2'F-ANA at 2 4 5 6 7 8 10,67.1
2'F-ANA at 1 2 4 5 8 11 12 14,68.3
2'F-ANA at 2 3 4 5 8 9 10 11 14,53.7
2'F-ANA at 4 6 11 15,189
2'F-ANA at 2 4 5 11 12 14,54
2'F-ANA at 2 5 7 8 9 10 11 12 15,52.5
2'F-ANA at 1 2 4 6 8 9 10 12 13 15,52.1
2'F-ANA at 2 7 10 11 12 14,83.4
2'F-ANA at 1 2 3 6 7 8 9 10 12 14,56.5

# Study 2
# Target: CCND2, cyclin fold, Cln2 fusion (human)
# Technique: yeast growth competition, sequencing
# Medium: yeast
# Setting: weak parent motif
# Reference: not given
# Reading: higher = stronger binding
# Parent: SLBP docking peptide (human); ARYKRKLLINDFG
Substitution,normalised enrichment score
ARYKRKLLTNDFG [I9T],0.134
ARYKRKLLINDWG [F12W],0.00263
ARYKYKLLINDFG [R5Y],0.138
ARYKEKLLINDFG [R5E],0.274
ARTKRKLLINDFG [Y3T],-0.0462
ARYKRGLLINDFG [K6G],0.402
ARYKDKLLINDFG [R5D],0.159
ARYKRKLCINDFG [L8C],-0.12
ARYKRKLPINDFG [L8P],0.476

# Study 3
# Target: ABI1, truncated, D143A, DHFR fusion (Arabidopsis thaliana)
# Technique: DHFR PCA, deep sequencing
# Medium: yeast
# Setting: methotrexate growth selection, single substitutions
# Added: (+)-ABA 0.0091 µM
# Reference: wild-type fitted maximum
# Reading: higher = stronger binding
# Parent: PYL1, truncated, DHFR fusion (Arabidopsis thaliana); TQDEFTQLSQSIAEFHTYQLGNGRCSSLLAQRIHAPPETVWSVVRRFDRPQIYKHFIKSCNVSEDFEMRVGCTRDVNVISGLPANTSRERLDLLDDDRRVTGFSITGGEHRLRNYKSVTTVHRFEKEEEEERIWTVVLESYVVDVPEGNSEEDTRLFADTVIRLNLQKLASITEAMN
Substitution,relative binding score [%]
T154E,-4.46
G148T,1.32
T86Q,11.9
I57R,0.656
C60I,-1.05
L94M,4.55

# Further values, each from its own experiment
Substance,target,assay,system,setting,how to read,measurement,value
"PhoQ, residues 284 288 289 292 302 303 TYGVAM","PhoP, residues 12 14 15 18 19 HLGGL (Escherichia coli, UniProt P23836)","Sort-seq, measured: YFP reporter",E. coli,"PhoQ-PhoP variant library, added: 10 µM Mg2+","reference: high Mg2+ state, higher = stronger signaling",fold induction,7.32

# For quick reference, copied from above (study 3):
Substitution,relative binding score [%]
L94M,4.55
I57R,0.656
C60I,-1.05
T86Q,11.9
